# Measurements pooled from the literature.
# Compare with care: the assays were run in different laboratories. Values joined by “and” are separate records of one study, mostly repeats; a detail may differ.
# Organism: Staphylococcus aureus
Structure (SMILES),test,test system,setting,scale,measurement,value
CC1=C[C@@H](C)[C@H]2[C@@H]3C(=O)C(Cl)(Cl)C(=O)[C@H](C)C(=O)O[C@@H](C)/C=C/C=C\[C@@H](C)[C@@H]3C=C[C@@H]2C1,,Newman mutant MT2,,relative to: parent strain,MIC fold shift,16
CC[C@H](C)[C@@H]1NC(=O)[C@@H]([C@@H](C)O)NC(=O)CNC(=O)[C@H](CC(=O)O)NC(=O)CNC(=O)[C@H](CC(=O)O)NC(=O)CNC(=O)[C@H]2CCCCN2C(=O)[C@@H](NC(=O)[C@H](CC(=O)O)NC(=O)/C=C/CCCCCCCCCC(C)C)CNC(=O)[C@@H]2CCCN2C1=O,broth microdilution,"BR-VRSA strain 880, Mueller-Hinton broth, Mg2+ 10 mg/L","16 h, together with: Ca2+ 0 mM",,MIC,> 128 µg/mL
OB(O)c1ccc(C(F)(F)F)s1,,USA300 wild type,50 µM,relative to: untreated,growth relative to untreated,53.5% and 60.1% and 60.5% and 70.3% and 58.3% and 66.5%
c1ccc(CCNC2CCCc3c2[nH]c2ccc(C4CCCCC4)cc32)cc1 (centres unmarked),broth microdilution,SG511 daptomycin-resistant,,,MIC,2 µg/mL
CC(C)CCCCCCCCC/C=C/C(=O)N[C@@H](CC(=O)O)C(=O)N[C@H]1CNC(=O)[C@@H]2CCCN2C(=O)[C@H](C(C)C)NC(=O)[C@@H](CN)NC(=O)CNC(=O)[C@H](CC(=O)O)NC(=O)CNC(=O)[C@H](CC(=O)O)NC(=O)[C@H](CC(=O)O)NC(=O)[C@H]2CCCCN2C1=O,broth microdilution,"MRSA USA300, Mueller-Hinton broth, Mg2+ 10 mg/L","16 h, 37 °C, together with: Ca2+ 1.0 mM",,MIC,8 µg/mL
CCCCCCCCCCCCCC(=O)N[C@H]1C(=O)N[C@@H](CN)C(=O)N[C@@H](CO)C(=O)N[C@@H](Cc2ccc(O)cc2)C(=O)O[C@H]1C,,SH1000,"together with: phosphatidylglycerol, molar ratio 2",,MIC,16 µg/mL
N=C(N)NCCC[C@H](NC(=O)[C@H](Cc1c[nH]c2ccccc12)NC(=O)[C@H](CCCNC(=N)N)NC(=O)[C@H](CCCNC(=N)N)NC(=O)[C@@H]1CCCN1C(=O)[C@H](CCCCN)NC(=O)[C@@H](N)CCCNC(=N)N)C(=O)N[C@@H](Cc1c[nH]c2ccccc12)C(=O)N[C@@H](Cc1c[nH]c2ccccc12)C(=O)N1CCC[C@H]1C(=O)N[C@@H](CCCCN)C(=O)N[C@@H](CCCNC(=N)N)C(=O)N1CCC[C@H]1C(=O)O,,"09057, female BALB/c mice, sepsis, liver","intraperitoneal, 20 mg/kg",,log bacterial load,5.12 log(CFU/g) and 4.79 log(CFU/g) and 5.25 log(CFU/g) and 5.4 log(CFU/g) and 5.06 log(CFU/g)
C=C(NC(=O)c1csc(-c2nc3c(cc2O)-c2nc(cs2)C(=O)NC(C(C)O)C(=O)NC(=C(C)OC)c2nc(cs2)C(=O)NC2c4nc(cs4)C(=O)NC(COC(=O)c4c5c6c(cccc6n4O)COC(=O)C(OC4CC(C)(O)C(N(C)C)C(C)O4)C2OC5)c2nc-3cs2)n1)C(N)=O (centres unmarked),,MRSA strain 2,,,MIC,0.0156 µg/mL
